Assay results from different studies.
Parts stem from different laboratories: compare values within a part only. Substitutions count along the parent as printed.

Study 1
Target: ABI1, truncated, D143A, DHFR fusion (Arabidopsis thaliana)
Technique: DHFR PCA, deep sequencing
Sample: yeast
Setting: methotrexate growth selection, single substitutions
With: (+)-ABA 200 µM
Reference: wild-type fitted maximum
Reading: higher = stronger binding
Starting sequence: PYL1, truncated, DHFR fusion (Arabidopsis thaliana); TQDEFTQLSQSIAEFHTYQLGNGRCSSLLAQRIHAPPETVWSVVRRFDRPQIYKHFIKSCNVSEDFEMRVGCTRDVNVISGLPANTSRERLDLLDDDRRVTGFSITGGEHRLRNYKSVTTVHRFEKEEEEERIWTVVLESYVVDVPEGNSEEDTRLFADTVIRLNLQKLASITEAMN; partner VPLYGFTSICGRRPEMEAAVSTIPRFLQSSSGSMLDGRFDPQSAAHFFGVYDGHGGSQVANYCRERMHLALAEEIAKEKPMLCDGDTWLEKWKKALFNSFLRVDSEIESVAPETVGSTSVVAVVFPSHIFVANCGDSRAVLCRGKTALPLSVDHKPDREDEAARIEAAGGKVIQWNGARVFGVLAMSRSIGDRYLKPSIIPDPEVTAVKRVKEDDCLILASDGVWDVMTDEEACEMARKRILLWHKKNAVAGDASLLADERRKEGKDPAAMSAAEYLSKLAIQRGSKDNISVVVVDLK
Variant	relative binding score
G107K	66.4%
E139M	85.3%
R45M	20.5%
L164N	86.2%
R88M	96.3%
F124H	95.3%
T17M	82.2%
E14Q	100%
C72H	92.9%
H55G	104%
P36C	85.7%
R98A	96.8%
T106K	94.2%
E4K	87.1%
E174Q	89.5%
S26D	62.4%
P36Q	87.7%
S59C	99.5%
K58Q	104%
M68D	78.3%
Q167R	104%
D48R	47%

Study 2
Target: RNA binding protein fox-1 homolog 2, RRM domain, GST-SBP tag (RBFOX2, Homo sapiens, UniProt O43251-10, residues 100-194)
Technique: RNA Bind-n-Seq
Molecule type: RNA
Sample: in vitro
Concentration: 365 nM
Setting: natural RNA segment, single round, ends assumed
Reference: no-protein control
Reading: higher = stronger binding
Oligonucleotide	RBNS enrichment (R)
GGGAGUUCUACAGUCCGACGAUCUUCAUGGUGGCAAAAUAUUAGCUCUGUUUUGGGACAUUUUAAAAUAGAACUAUCCUUGUUCGAUAGCAUAGGAAAAUGUUCUGGUGAUUGUCAGGGUCUCCUAAUAUUUAUGGAAUUCUCGGGUGCCAA	0.56
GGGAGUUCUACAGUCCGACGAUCAGCUGAGAGCCAGAAAUGCAGAUUCAAUUUGGAAGGAGAUGGGAUAGCUGAAGAACUUACCACGUCCAUGACUGUGCCCUGACUCAAGACCGUAUCAUGUGGUGGCUUUAUGGAAUUCUCGGGUGCCAA	0.499
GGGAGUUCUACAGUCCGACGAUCCUGAACAUUAGUUUGUAGUGUAACUAUUAGUAAAAAUAGAGAAACACAGCAUACUGUUCAUUAAUAGUAUUUUAAAAAAAUUGUUUUUCAAAUGUCACCAAUAAAAGUUUUGGAAUUCUCGGGUGCCAA	1.11
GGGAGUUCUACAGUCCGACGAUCUCAUCAGGCCAUUACAUUGUCCAUGUUAAAAUUAUAAAAAUGAUCCUAGUUUUUCAUAGGAGUCUAGGAUUUUGAUCUUUUAAAAAAUACAGUGUGAUUUCAUGCUUUUGUGGAAUUCUCGGGUGCCAA	0.425
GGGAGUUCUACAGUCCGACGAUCUUUUGUAAUUUUCAAUUCUAUUGUAAAAGAAACUUAAGUCUCCAACUUGCUGUUUCCAAAAAGAAGGUGCAAUAUCAUAUACAUCAUUAGCAAUAUUAGCAUUUCAAUCAUGGAAUUCUCGGGUGCCAA	0.394
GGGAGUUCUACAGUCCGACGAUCCCAGCUUGCCUAGAGACGUUGCCUUCAUCAGAGAAGACUCCAUUAAUUCAGUGUCCCAAUGGUGUCCUAGGGAGGCAGCAGACGUUUCGUUUGUCCUCAGUAAGAGCUGAUGGAAUUCUCGGGUGCCAA	0.545
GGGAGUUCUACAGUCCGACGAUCGCAACUGCUAAACUAUGCAGUUUUUCUUGAAGGAACUAAAAGCAACUAGCUCCCUAAUGGUCUAUAAUUUUAUUUCUUUUGGCUUAAAGUGAAAAAGAAGAAAUAGAGAAUGGAAUUCUCGGGUGCCAA	0.489
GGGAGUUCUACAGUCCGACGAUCUUGAUGUCAUGUACUUCCUGUGUACUCUUUAUUUCUAGCAGAGUGAGGAUGUGUUUUGCACGUCUUGCUAUUUGAGCAUGCACAGCUGCUUGUCCUGCUCUCUUCAGGAGUGGAAUUCUCGGGUGCCAA	0.622
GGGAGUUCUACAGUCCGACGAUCCAGCUACUUUGUGUUGAACACAAUUGAUUCUCCAGGUGCUCAUGGUGCAGGAAAACAGGACAGACAGAGAGCACCUGAACCCUUGCCAUCUGAUGUCACCAAUUCAGGAAUGGAAUUCUCGGGUGCCAA	0.749
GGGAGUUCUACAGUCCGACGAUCGUCCUCUGCAGUGCCUCUCUCACGGCUGUCUGACCCCAGCCUGCCUGUCCUGCCCCACUAGUCCUCACCACUACUCGCAUGUCCCCACCUUGCCUGGGACCAGCCUGGGAUGGAAUUCUCGGGUGCCAA	2.81
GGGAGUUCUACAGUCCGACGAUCUCAAAAUGGAAAGAUGGGAAUGUCUCAAAACAAAAUGAGCUUGGAGAUUACCAAGCAGUUUGCUGAAAAUUCAAUCUUUGACCCAAACUGUAGCAAUUUUUAUUUUCUGAUGGAAUUCUCGGGUGCCAA	0.479
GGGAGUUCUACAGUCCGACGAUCUGCACUGACAUCCAGCACCUGGACAUCUCCCCUGGUGUCAGCCCACUGGCUCCGGGUCUACAUGGUGGGAGGAUCAGGAUGCUAAUGUUUCCCCUCUUUGGUUCUCAAAUUGGAAUUCUCGGGUGCCAA	0.514

Study 3
Target: Histone acetyltransferase KAT6A, winged helix 1, GST fusion (KAT6A, Homo sapiens, UniProt Q92794, residues 1-85)
Technique: protein binding microarray
Molecule type: double-stranded DNA, one strand shown
Sample: in vitro
Concentration: not given
Setting: 8-mer, flanks averaged, mean of 2 arrays, mostly near background
Reference: not given
Reading: higher = stronger binding
Construct (chain): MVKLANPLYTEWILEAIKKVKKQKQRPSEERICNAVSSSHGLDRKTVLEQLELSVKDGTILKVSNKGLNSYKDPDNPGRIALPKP
Oligonucleotide	E-score
TAAAAATA	-0.17
AGCCAAAG	-0.143
CGTGAAAC	0.111
CGTCGTGA	0.128
ATCGTACG	0.137
AGCCCCAG	-0.209
CATAGCTC	-0.103
CAGAGGAC	-0.112
CCACACCC	-0.101
CGCCGCCA	0.409
CAACCGCA	0.104
CACAAATG	-0.172
ACAGTAAC	0.0165
ACCACAAA	-0.194
ACACCAAA	-0.0953
CTTAGGGC	-0.0243
AAGATGCG	0.0115
AAGGACGC	0.142
GAGATCCC	0.0192
CTCCTAGA	-0.134
ATCCCTGA	-0.194
CAAACCTA	-0.122

Study 4
Target: Interferon regulatory factor 5, full length, phosphomimetic (IRF5, Homo sapiens, UniProt Q13568-2, residues 1-514, S451D/S453D/S456D/S462D)
Technique: protein-binding microarray
Molecule type: double-stranded DNA, one strand shown
Sample: in vitro
Concentration: 940 nM top
Setting: 60-bp whole probe
With: salmon DNA 0.4 mg/ml
Reference: random background probes
Reading: higher = stronger binding
All sequences stand within: GCCTAGCAC … GTCTTGATTCGCTTGACGCTGCTG
Oligonucleotide	fitted relative affinity [z-score]
GACGGTATCGGCTTTCGGGACGTGCTA	4.9
TTCCAAATGCCCTCTCCATACGTGCTA	0.617
ACAGCAAGCAGGGCCAGCCCGTGCTAG	-1.09
TTAGGTTTCCTTCTTCTTTAGTGCTAG	2.17
GGCGGTTTCGACACTGGGGACGTGCTA	7.29
GTCGGTATCGACACTGGGGACGTGCTA	4.67
TTAGAACTCAGTATCGATTAGTGCTAG	4.53
CTAGATTTCGGGACTGGATTAGTGCTA	0.403
TTAGGACTGCTTCTCCTTTTGTGCTAG	-0.277
TTAGATCCCAGTATCGATTAGTGCTAG	4.63
TTCGGACTGGGACTGGGTTAGTGCTAG	-0.234
ATATGTATATATGTGTATATGTGCTAG	-0.107
TCACGTAAGCAAAAATGACTGTGCTAG	-0.6
TCACTTACCTCACTCGTACTGTGCTAG	0.883
GACGATATCAGACTGGAGTCGTGCTAG	-0.677
GACGGTTTCGAGACTGGGGACGTGCTA	6.41
TTAGATATCGTGTTTCGATTAGTGCTA	2.05
TCAAGGGTCTGTTTGGGACTGTGCTAG	-0.688
TCACATATTTGTTTCCAACTGTGCTAG	0.823
TAGAGTAGCTTTCTGAGGGCGTGCTAG	-0.304
GACGGTATCGGTTTTCGGGACGTGCTA	8.21
GACGAACTGGGTCTCGAGACGTGCTAG	0.0595
TCAAAATTCTAATTAGAACTGTGCTAG	-0.456
TACGGTTTCGGGACTGGGGACGTGCTA	6.34
TTAGGTCTCGGTGTCGGTTAGTGCTAG	3.63

Study 5
Target: CCND1, cyclin fold, Cln2 fusion (human)
Technique: yeast growth competition, sequencing
Sample: yeast
Setting: weak parent motif
Reference: not given
Reading: higher = stronger binding
Starting sequence: BRCA2 docking peptide (human); PSIKRNLLNEFDR
Variant	normalised enrichment score
R5V	0.219
D12Q	0.494
R13L	0.392
P1F	0.064
N6M	-0.076
R13M	0.549
S2V	0.111
I3C	1.2
D12V	0.684
P1C	1.13
R13C	0.624
K4G	0.143
R5A L7A	0.133
L7W	-0.057
L7E	-0.202
D12R	0.638
K4N	0.0365

Repeated from above (study 5):
Variant	normalised enrichment score
R5V	0.219
D12Q	0.494
R13L	0.392
P1F	0.064
N6M	-0.076
R13M	0.549
S2V	0.111
I3C	1.2
D12V	0.684
P1C	1.13
R13C	0.624
K4G	0.143
R5A L7A	0.133
